Results pooled from the literature.
Every numbered part comes from another study and shows a few of its results, in no order. Several values in a cell are separate wells, animals, samples, runs or records.

Sample 1
Target: Replicase polyprotein 1ab, polymerase (rep, Severe acute respiratory syndrome coronavirus 2, UniProt P0DTD1)
Effect on: enzyme activity
Action: inhibitor
Tested at: 20 µM
| Compound | inhibition [%] |
| --- | --- |
| CNC(=O)Oc1ccccc1OC(C)C | -2.11 |
| CC(=O)OCC(=O)[C@@]12OC3(CCCC3)O[C@@H]1C[C@H]1[C@@H]3CCC4=CC(=O)C=C[C@]4(C)[C@@]3(F)[C@@H](O)C[C@@]12C | -1.39 |
| CC(C)(C)N1CCC(c2ccccc2)(c2ccccc2)CC1 | 2.26 |
| COc1ccc2c(O[C@@H]3C[C@H]4C(=O)N[C@]5(C(=O)NS(=O)(=O)C6CC6)C[C@H]5/C=C\CCCCN(C)C(=O)[C@@H]4C3)cc(-c3nc(C(C)C)cs3)nc2c1C | -5.06 |
| COc1cc2c(cc1OC)CN(C(=O)/C=C/c1c(-c3ccccc3)n(C)c3ncccc13)CC2 | 9.74 |
| CCOC(=O)CCNc1cc(N2CCc3ccccc3CC2)nc(-c2ccccn2)n1 | 15 |
| CC[C@]12CCCN3CCc4c(n(c5ccccc45)C(=O)C1)[C@@H]32 | 2.61 |
| c1cc(-c2cnn3cc(-c4ccc(N5CCNCC5)cc4)cnc23)c2cccnc2c1 | 18.2 |
| COc1cc(N2CCC(N3CCN(C)CC3)CC2)ccc1Nc1ncnc(Nc2ccccc2S(=O)(=O)C(C)C)n1 | -4.52 |
| c1ccc2nc(C3=NCCN3)cnc2c1 | 0.54 |
| CCc1ccc(OCc2ccccc2C(=O)Nc2ccc3nc(C)cc(N)c3c2)cc1 | 0.91 |
| O=C(O)c1cc(O)c2c(c1)[C@H]([C@H]1c3cc(C(=O)O)cc(O)c3C(=O)c3c(O[C@@H]4O[C@H](CO)[C@@H](O)[C@H](O)[C@H]4O)cccc31)c1cccc(O[C@@H]3O[C@H](CO)[C@@H](O)[C@H](O)[C@H]3O)c1C2=O | 99.7 |
| O=C(NCc1ccccc1)c1csc(Nc2ccncn2)n1 | -2.44 |
| CCN1C[C@]2(COC(=O)c3ccccc3N3C(=O)C[C@H](C)C3=O)CC[C@H](OC)[C@@]34[C@@H]5C[C@H]6[C@H](OC)[C@@H]5[C@](O)(C[C@@H]6OC)[C@@](O)([C@@H](OC)[C@H]23)[C@@H]14 | -3.24 |
| CC[C@H]1CN2CC[C@H]1C[C@@H]2[C@@H](O)c1ccnc2ccc(OC)cc12 | 0.53 |
| Oc1ccc2c3c1O[C@H]1c4oc5ccccc5c4C[C@@]4(O)[C@@H](C2)N(CC2CC2)CC[C@]314 | 2.7 |
| Clc1ccc(C(c2ccc(Cl)cc2)C(Cl)(Cl)Cl)cc1 | -13.5 |
| COc1ccc(/C=C/CCCCOc2ccc(C(=O)c3cccc(C(=O)O)c3)cc2CCC(=O)O)cc1 | 5.85 |
| CC(C)(C)CC(C)(C)c1cc(Cc2cc(C(C)(C)CC(C)(C)C)cc(-n3nc4ccccc4n3)c2O)c(O)c(-n2nc3ccccc3n2)c1 | -4.75 |
| CC(=Nc1ccccc1N)c1c(C)cc(=O)n(O)c1O | -4.43 |
| CNCCc1cnc[nH]1 | 0.26 |
| CC(C)Oc1ccc(-c2cnc3c(-c4ccnc5ccccc45)cnn3c2)cc1 | -2.95 |
| O=C(O)[C@@H](O)[C@H](O)[C@H](O)[C@@H](O)C(=O)O | 1.41 |
| COc1ccccc1N1CCN(CC(O)COc2cc(OC)c(OC)c(OC)c2)CC1 (stereo not shown) | -4.01 |
| O=C(CN1C2=NCCN2c2ccccc21)c1ccc(-c2ccccc2)cc1 | 1.46 |

Sample 2
Target: Sal-like protein 4, full length isoform A (SALL4, Homo sapiens, UniProt Q9UJQ4, residues 1-1053)
Chain of UniProt Q9UJQ4 (whole entry, looked up): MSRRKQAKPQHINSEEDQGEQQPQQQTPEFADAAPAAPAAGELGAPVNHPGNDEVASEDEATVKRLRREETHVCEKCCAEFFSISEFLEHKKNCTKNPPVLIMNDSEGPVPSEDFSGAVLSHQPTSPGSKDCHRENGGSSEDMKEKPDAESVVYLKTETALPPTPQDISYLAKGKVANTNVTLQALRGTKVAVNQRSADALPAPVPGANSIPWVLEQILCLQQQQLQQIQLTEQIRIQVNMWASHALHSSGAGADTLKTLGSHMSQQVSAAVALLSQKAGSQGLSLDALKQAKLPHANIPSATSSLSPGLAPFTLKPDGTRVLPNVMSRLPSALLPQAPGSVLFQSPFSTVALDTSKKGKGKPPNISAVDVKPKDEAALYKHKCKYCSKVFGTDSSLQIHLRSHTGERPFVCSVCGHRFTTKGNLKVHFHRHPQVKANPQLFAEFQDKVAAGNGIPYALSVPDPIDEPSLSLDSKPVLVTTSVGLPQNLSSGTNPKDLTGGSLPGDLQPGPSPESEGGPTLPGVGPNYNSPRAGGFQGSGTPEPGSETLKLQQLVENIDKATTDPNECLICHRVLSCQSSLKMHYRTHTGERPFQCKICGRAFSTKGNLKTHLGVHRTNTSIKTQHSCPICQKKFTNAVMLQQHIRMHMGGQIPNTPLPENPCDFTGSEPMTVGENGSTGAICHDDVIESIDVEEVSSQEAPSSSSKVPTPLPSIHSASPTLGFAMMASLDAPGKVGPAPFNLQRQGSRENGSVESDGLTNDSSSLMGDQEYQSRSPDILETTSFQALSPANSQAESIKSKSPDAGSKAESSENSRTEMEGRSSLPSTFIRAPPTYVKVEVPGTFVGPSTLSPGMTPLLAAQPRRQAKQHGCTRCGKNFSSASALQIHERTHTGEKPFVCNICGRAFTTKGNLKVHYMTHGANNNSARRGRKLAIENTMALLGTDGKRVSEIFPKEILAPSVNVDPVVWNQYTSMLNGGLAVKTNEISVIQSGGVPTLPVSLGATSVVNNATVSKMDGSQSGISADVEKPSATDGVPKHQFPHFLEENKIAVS
Method: universal PBM
Form: double-stranded DNA, one strand shown
Matrix: in vitro
Tested at: 600 nM
Notes: 8-mer, flanks averaged, mean of replicates
Direction: higher = stronger binding
| Sequence | E-score |
| --- | --- |
| CGAGAAAG | 0.0976 |
| CTGCGGAA | -0.198 |
| CAAATACC | 0.0827 |
| CTTCAAAC | -0.0358 |
| ATTTGATC | 0.0438 |
| GAGTAAGC | -0.126 |
| TCGTTGCA | 0.0215 |
| CAAGTCCC | -0.226 |

Sample 3
Target: RNA binding protein fox-1 homolog 2, RRM domain, GST-SBP tag (RBFOX2, Homo sapiens, UniProt O43251-10, residues 100-194)
Method: RNA Bind-n-Seq
Form: RNA
Matrix: in vitro
Tested at: 365 nM
Notes: natural RNA segment, single round, ends assumed
Baseline: no-protein control
Direction: higher = stronger binding
Residues (chain): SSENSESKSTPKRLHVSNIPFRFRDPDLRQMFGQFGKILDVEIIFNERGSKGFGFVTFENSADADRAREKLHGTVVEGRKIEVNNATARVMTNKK
| Sequence | RBNS enrichment (R) |
| --- | --- |
| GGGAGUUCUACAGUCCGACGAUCAGUUUGAUAACUAGGGAAGAAAGCAGAACAGUUAAGCAGCCGCCACAUCCCCGCUGGCUGGGGGCCUCACUCCAGGAAGGGGCUGGACUGGCUGUCCUUUCCAGUGGCCUUGGAAUUCUCGGGUGCCAA | 0.215 |
| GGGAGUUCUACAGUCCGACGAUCUGAAGAGCAUGGAGGGGGAGCCUCAGAGCUGACAGUCCUGCUUAGAGCCCUUAAAAAGACUUGAAAGUUCACUGGGACUCAGUUUACCUUAAUGCCUUAGCAGAAGAUAAUGGAAUUCUCGGGUGCCAA | 1.07 |
| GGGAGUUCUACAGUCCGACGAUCAGAAAAAAAAGAUUUUCUUUACAUAAAGUGAAUCAAAUUUGACAUUAUUUUAGAUCCCAGAGAAAUCAGGUGUGAUUAGUUCUCCAGGCAUGAAUGCAUCGUCCCUUUAUUGGAAUUCUCGGGUGCCAA | 3.5 |
| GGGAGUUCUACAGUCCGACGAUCACUUGUUUGAAAAUUUGGAAUAGUGCUGCUGUCAGCUUAUUUUUCUGGUACUUGUAUUUUCUAUGUUAAAUGAUCUUUAUAUGUGUUGGAUUAACAAAUAUUUUGAGUUUUGGAAUUCUCGGGUGCCAA | 0.678 |
| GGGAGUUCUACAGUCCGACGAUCAAACCCAUACACAAGUGGAUUUGGCCAUCUUUGGGCAGUGAGGUCAAAUGUGAAUAUGUGUAAAAGUGCUUUUCAGAACUGCAUUACUAUGAGAAAACAUCAAAACUGCUUGGAAUUCUCGGGUGCCAA | 0.46 |
| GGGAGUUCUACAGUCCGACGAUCAAAAUACAGUGCAAUUAGUGAUGGCUAAAUACACAGUGCUUGGGAUUCAGUCUGUGUAACAUUUUCUUCUGUGUUUUUUACCAGCCAGCUCAAAAGUUAAGAGCAAAUUAUGGAAUUCUCGGGUGCCAA | 0.582 |
| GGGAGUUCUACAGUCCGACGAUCGUACUGUCCCGGCUGGUUUUAUCUCAGCUCCUCUCAGCCGUGUCUCUGGCACGCUUGAGAGGAGUCAUGCCACUUUGAUGCUCCUUGCAGAGGUGGGACACUGAGGUGCUUGGAAUUCUCGGGUGCCAA | 0.147 |
| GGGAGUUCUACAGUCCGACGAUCCAAGGCCUGGUAAAGUCAGGCUCCUGGGAGUGGCAUUUCCUGUUUGACCUCUACCCAUCUCCCAGUUGUUUCACUUCCUCUUCCUGUUCCAGGAGCAGAGGUCUUAUUGGUGGAAUUCUCGGGUGCCAA | 0.279 |

Sample 4
Organism: SARS-CoV-2
Effect on: cytopathic effect
Cell line: Vero E6
Tested at: 10 µM
| Structure (SMILES) | inhibition |
| --- | --- |
| COc1ccc2[nH]c([S+]([O-])Cc3ncc(C)c(OC)c3C)nc2c1 (stereo not shown) | 1.3% and -5.2% |
| O=C1OC2(c3cc(I)c(O)c(I)c3Oc3c2cc(I)c(O)c3I)c2c(Cl)c(Cl)c(Cl)c(Cl)c21 | 75.5% |
| COc1ccc(OC)c2c(=S)c3ccccc3[nH]c12 | -2.6% |

Sample 5
Cell line: HEK-293T
Organism: VSV pseudotyped with SARS-CoV-2 spike
Tested at: 10 µM
Time: 16 h
| SMILES | pseudovirus infection [%] |
| --- | --- |
| CC(C)CN(C[C@@H](O)[C@H](Cc1ccccc1)NC(=O)O[C@H]1CO[C@H]2OCC[C@H]21)S(=O)(=O)c1ccc(N)cc1 | 84.9 |
| COc1cc(Cc2cnc(N)nc2N)cc(OC)c1OC | 81.3 |
| Nc1nc2ccc(OC(F)(F)F)cc2s1 | 120 |

Sample 6
Target: Interferon regulatory factor 3, full length, phosphomimetic (IRF3, Homo sapiens, UniProt Q14653, residues 1-427, S386D/S396D/S398D/S402D/T404D/S405D)
Method: protein-binding microarray
Form: double-stranded DNA, one strand shown
Matrix: in vitro
Tested at: 2540 nM top
Notes: 60-bp whole probe
With: salmon DNA 0.4 mg/ml
Baseline: random background probes
Direction: higher = stronger binding
All sequences stand within: GCCTAGCAC … GTCTTGATTCGCTTGACGCTGCTG
Target sequence (chain): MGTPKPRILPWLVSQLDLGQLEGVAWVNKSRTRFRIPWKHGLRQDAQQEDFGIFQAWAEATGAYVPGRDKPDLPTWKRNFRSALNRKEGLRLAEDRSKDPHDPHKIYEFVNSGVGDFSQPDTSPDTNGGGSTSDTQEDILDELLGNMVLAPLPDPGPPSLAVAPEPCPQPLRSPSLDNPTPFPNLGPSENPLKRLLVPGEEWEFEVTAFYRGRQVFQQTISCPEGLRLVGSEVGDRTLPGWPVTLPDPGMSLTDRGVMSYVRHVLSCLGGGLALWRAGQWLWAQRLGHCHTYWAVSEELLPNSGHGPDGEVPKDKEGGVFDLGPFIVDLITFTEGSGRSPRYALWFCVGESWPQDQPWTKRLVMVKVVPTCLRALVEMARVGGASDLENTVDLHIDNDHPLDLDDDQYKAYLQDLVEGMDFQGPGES
| Sequence | fitted relative affinity |
| --- | --- |
| GACGGTTTCCTTTTCCGGACGTGCTAG | 10.8 z-score |
| TCACCTCCCCCTCTGCCACTGTGCTAG | 0.191 z-score |
| CCCCTACTGTATTTGGCCAGGTGCTAG | 0.976 z-score |
| CTGTACATCTATGTAGAAAGGTGCTAG | 0.495 z-score |
| GACGGAATCGGGTATCGGGACGTGCTA | 0.252 z-score |
| TAGAGTCTCAACCCCCAATAAGTGCTA | -0.479 z-score |
| TCAGGTCTCCTTTTCCTTTAGTGCTAG | 5.61 z-score |
| GACGGTTTCCTACTGCTGTCGTGCTAG | 5.57 z-score |

Excerpt of the above (sample 1):
| Compound | inhibition [%] |
| --- | --- |
| O=C(O)[C@@H](O)[C@H](O)[C@H](O)[C@@H](O)C(=O)O | 1.41 |
| COc1ccc(/C=C/CCCCOc2ccc(C(=O)c3cccc(C(=O)O)c3)cc2CCC(=O)O)cc1 | 5.85 |
| CCOC(=O)CCNc1cc(N2CCc3ccccc3CC2)nc(-c2ccccn2)n1 | 15 |
